# Measurements of several laboratories.
# Each numbered part is a random draw from the data of one study; scales do not carry over between parts. Changes are numbered by the printed parent chain.

# Study 1 — method: RNA Bind-n-Seq; form: RNA; matrix: in vitro; tested at: 365 nM; baseline: no-protein control; reading: higher = stronger binding
# Target: RNA binding protein fox-1 homolog 2, RRM domain, GST-SBP tag (RBFOX2, Homo sapiens, UniProt O43251-10, residues 100-194)
# Setting: natural RNA segment, single round, ends assumed
# Constant ends, left off below: GGGAGUUCUACAGUCCGACGAUC … UGGAAUUCUCGGGUGCCAA
# Residues (chain): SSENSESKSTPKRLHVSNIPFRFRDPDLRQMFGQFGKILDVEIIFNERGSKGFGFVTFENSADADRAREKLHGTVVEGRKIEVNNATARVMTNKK
Strand,RBNS enrichment (R)
CACACGGACUCCCGGGCCACGCCCCAGCCCGACAAUGUCGAGUAUAUUAUUAUUAAUAUUAUUAUGAAUUUUUGUAAGAAACCGAGGCGAUGCCACGCUUUGCUGCUACC,0.456
UGCCUCUGACACACUGCACACGUCUAGAGGCUGUAAUUGGAAAUAGGCUUUUGGUUUCCUGUGCCAUUCAAGUUUGGGGCUUUCAUUUGGUUACAGAGUUCAGCGCUUGG,1.98
UGGGUCUGAGGUUAUCCCUGUCCCCAUGCCCCCUCUGUGCCCCGAGCUCUGUCUCCCCACUCUUGCUGUUGUGUUGUCCUUGUGAAUGUAUGGCUGACCCACUCCAGGCC,3.23
CAGCCCUUCAAGUUCUUUUAUUUCUGGGUAACAGAAGUAGACAGACAGGUUACUUGGUGUAUCUUCUGUUAAAGAGGAUUGCACGAGUGUGUUUUCCUCACACACUUUGA,0.313
UGCAUACCUGUUUAGAACCAAAACCACCACGACACGGUUUUUAUAGUGUCUGUAUAUUUGUGAUGCAAUGGUCUUGUAAAGGUUUUUACUGAAAACUAUCAUUAGCCAGC,0.659
AAUGUUCCCUUCACAUUGAAUCAAAUACAAAUCAGCACAGAUACUGUUUCCAGUUUUUAAAAAUGUAAUAUUAUGGAAAGUAUUUUGCUUCAAGUUGAAUAUGUAUUGUG,0.888
CUGCUGCGAUCCGGCAGCCUCUCUUCACUGCUACAUGUGCUGGAAGGACAAAUAAAUAAUUGUGGUUGUGUUCUUAAUGGGGACGAGCAGACACACUGAUCUGAACAUCU,0.238
GAGGGAGAACCCAAUUUUCAAUUAUGUUGGCUUUUUAUAAAGCUUGAGUUAUGUAAGAUUUAAAUAAAAGUUUGCUACCAAGAUGAUUGCCUUAUUGAAUAGGUCACUAU,2.44

# Study 2 — method: DHFR PCA, deep sequencing; matrix: yeast; together with: (+)-ABA 58 µM; baseline: wild-type fitted maximum; reading: higher = stronger binding
# Target: ABI1, truncated, D143A, DHFR fusion (Arabidopsis thaliana)
# Setting: methotrexate growth selection, single substitutions
# Starting sequence: PYL1, truncated, DHFR fusion (Arabidopsis thaliana); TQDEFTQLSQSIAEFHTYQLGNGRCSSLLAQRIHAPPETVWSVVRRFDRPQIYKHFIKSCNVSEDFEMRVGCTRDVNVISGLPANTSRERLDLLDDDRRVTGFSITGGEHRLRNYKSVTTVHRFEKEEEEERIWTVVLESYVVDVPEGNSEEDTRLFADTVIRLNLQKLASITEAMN; partner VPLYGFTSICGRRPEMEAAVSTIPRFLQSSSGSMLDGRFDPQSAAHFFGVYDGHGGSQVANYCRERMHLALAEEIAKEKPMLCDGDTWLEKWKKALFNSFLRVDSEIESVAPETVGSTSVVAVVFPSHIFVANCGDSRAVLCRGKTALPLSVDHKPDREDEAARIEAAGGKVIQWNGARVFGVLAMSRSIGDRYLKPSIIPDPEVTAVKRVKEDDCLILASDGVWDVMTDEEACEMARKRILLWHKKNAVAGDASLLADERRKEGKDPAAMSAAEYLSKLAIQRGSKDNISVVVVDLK
Substitution,relative binding score [%]
N22C,84
T106L,99
V76R,-5.67
V142E,83.8
R98V,65.3
G21K,94
A35T,53.5
A30D,50.1
T1G,85.2
L94D,7.29
I105K,-13.6
E109R,69.8
A158R,1.78
T73N,70.4
P50G,-0.921
T120P,-4.38

# Study 3 — method: protein binding microarray; form: double-stranded DNA, one strand shown; matrix: in vitro; tested at: not given; baseline: not given; reading: higher = stronger binding
# Target: Histone acetyltransferase KAT6A, winged helix 2, GST fusion (KAT6A, Homo sapiens, UniProt Q92794, residues 85-181)
# Setting: 8-mer, flanks averaged, mean of 2 arrays, mostly near background
# Target sequence (chain): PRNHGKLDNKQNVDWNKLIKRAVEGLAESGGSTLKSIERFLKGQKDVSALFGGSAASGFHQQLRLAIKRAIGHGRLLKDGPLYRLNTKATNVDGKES
Strand,E-score
AACTAATT,0.0653
CATATTGA,0.0835
CGTAGGCA,-0.0683
GCCGATTA,0.136
TCGCAAAA,0.104
AGGAAGAC,-0.0156
CTCCGCCA,0.126
TAAGCGGA,0.113
CGTTCTAA,0.012
CACGCGTC,-0.063
GCTATCAC,-0.023
CGTCGGTC,0.187
ACAGTTGC,-0.102
AAACGCAG,0.139
CTGCCATA,-0.11
ATAGCAAT,-0.0107
AGTGCAAA,0.0859
AGTTAGAG,0.00247
AAGACCAT,-0.168
ACTGCTTC,-0.2

# Study 4 — target: CCNE1, cyclin fold, Cln2 fusion (human); method: yeast growth competition, sequencing; matrix: yeast; setting: weak parent motif; baseline: not given; reading: higher = stronger binding
# Starting sequence: MICAL3 docking peptide (human); LQLRRQLSFSEDS
Substitution,normalised enrichment score
LQLRRQLSWSEDS [F9W],0.22
LQLARQLSFSEDS [R4A],1.26
LQLRRQTSFSEDS [L7T],-0.0917
LQLRRQNSFSEDS [L7N],-0.13
LQLRRQLSTSEDS [F9T],-0.0695
LQLRRQLCFSEDS [S8C],0.482
LELRRQLSFSEDS [Q2E],1.02
LQLRRQLPFSEDS [S8P],-0.0977
LQLRRQLSRSEDS [F9R],0.351
LQLRRQLRFSEDS [S8R],0.22
LQLRRQLSVSEDS [F9V],0.175
LQLRRQLAFSEDS [S8A],0.135
LQLRRQLSFSEES [D12E],1.19
LQLRRQDSFSEDS [L7D],-0.201
LQLRLQLSFSEDS [R5L],0.0594
LQLRNQLSFSEDS [R5N],0.233
LQLRRQHSFSEDS [L7H],0.398
LLLRRQLSFSEDS [Q2L],1.05
LQLKRQLSFSEDS [R4K],0.997
LQLRRQLSFSTDS [E11T],0.708
LYLRRQLSFSEDS [Q2Y],0.946
LQLRRQYSFSEDS [L7Y],-0.0469
LQLRRHLSFSEDS [Q6H],0.323
LMLRRQLSFSEDS [Q2M],1.13
LQLRRQLSFSEFS [D12F],1.81

# Some of these lines once more (study 3):
Strand,E-score
CGTAGGCA,-0.0683
GCCGATTA,0.136
TCGCAAAA,0.104
AGGAAGAC,-0.0156
CTCCGCCA,0.126
TAAGCGGA,0.113
CGTTCTAA,0.012
